Assay results collected from several papers.
Numbered parts are unrelated; each lists some results of a single study. Positions count from the first letter of the parent shown.
Chain of UniProt Q9NR09 (whole entry, looked up): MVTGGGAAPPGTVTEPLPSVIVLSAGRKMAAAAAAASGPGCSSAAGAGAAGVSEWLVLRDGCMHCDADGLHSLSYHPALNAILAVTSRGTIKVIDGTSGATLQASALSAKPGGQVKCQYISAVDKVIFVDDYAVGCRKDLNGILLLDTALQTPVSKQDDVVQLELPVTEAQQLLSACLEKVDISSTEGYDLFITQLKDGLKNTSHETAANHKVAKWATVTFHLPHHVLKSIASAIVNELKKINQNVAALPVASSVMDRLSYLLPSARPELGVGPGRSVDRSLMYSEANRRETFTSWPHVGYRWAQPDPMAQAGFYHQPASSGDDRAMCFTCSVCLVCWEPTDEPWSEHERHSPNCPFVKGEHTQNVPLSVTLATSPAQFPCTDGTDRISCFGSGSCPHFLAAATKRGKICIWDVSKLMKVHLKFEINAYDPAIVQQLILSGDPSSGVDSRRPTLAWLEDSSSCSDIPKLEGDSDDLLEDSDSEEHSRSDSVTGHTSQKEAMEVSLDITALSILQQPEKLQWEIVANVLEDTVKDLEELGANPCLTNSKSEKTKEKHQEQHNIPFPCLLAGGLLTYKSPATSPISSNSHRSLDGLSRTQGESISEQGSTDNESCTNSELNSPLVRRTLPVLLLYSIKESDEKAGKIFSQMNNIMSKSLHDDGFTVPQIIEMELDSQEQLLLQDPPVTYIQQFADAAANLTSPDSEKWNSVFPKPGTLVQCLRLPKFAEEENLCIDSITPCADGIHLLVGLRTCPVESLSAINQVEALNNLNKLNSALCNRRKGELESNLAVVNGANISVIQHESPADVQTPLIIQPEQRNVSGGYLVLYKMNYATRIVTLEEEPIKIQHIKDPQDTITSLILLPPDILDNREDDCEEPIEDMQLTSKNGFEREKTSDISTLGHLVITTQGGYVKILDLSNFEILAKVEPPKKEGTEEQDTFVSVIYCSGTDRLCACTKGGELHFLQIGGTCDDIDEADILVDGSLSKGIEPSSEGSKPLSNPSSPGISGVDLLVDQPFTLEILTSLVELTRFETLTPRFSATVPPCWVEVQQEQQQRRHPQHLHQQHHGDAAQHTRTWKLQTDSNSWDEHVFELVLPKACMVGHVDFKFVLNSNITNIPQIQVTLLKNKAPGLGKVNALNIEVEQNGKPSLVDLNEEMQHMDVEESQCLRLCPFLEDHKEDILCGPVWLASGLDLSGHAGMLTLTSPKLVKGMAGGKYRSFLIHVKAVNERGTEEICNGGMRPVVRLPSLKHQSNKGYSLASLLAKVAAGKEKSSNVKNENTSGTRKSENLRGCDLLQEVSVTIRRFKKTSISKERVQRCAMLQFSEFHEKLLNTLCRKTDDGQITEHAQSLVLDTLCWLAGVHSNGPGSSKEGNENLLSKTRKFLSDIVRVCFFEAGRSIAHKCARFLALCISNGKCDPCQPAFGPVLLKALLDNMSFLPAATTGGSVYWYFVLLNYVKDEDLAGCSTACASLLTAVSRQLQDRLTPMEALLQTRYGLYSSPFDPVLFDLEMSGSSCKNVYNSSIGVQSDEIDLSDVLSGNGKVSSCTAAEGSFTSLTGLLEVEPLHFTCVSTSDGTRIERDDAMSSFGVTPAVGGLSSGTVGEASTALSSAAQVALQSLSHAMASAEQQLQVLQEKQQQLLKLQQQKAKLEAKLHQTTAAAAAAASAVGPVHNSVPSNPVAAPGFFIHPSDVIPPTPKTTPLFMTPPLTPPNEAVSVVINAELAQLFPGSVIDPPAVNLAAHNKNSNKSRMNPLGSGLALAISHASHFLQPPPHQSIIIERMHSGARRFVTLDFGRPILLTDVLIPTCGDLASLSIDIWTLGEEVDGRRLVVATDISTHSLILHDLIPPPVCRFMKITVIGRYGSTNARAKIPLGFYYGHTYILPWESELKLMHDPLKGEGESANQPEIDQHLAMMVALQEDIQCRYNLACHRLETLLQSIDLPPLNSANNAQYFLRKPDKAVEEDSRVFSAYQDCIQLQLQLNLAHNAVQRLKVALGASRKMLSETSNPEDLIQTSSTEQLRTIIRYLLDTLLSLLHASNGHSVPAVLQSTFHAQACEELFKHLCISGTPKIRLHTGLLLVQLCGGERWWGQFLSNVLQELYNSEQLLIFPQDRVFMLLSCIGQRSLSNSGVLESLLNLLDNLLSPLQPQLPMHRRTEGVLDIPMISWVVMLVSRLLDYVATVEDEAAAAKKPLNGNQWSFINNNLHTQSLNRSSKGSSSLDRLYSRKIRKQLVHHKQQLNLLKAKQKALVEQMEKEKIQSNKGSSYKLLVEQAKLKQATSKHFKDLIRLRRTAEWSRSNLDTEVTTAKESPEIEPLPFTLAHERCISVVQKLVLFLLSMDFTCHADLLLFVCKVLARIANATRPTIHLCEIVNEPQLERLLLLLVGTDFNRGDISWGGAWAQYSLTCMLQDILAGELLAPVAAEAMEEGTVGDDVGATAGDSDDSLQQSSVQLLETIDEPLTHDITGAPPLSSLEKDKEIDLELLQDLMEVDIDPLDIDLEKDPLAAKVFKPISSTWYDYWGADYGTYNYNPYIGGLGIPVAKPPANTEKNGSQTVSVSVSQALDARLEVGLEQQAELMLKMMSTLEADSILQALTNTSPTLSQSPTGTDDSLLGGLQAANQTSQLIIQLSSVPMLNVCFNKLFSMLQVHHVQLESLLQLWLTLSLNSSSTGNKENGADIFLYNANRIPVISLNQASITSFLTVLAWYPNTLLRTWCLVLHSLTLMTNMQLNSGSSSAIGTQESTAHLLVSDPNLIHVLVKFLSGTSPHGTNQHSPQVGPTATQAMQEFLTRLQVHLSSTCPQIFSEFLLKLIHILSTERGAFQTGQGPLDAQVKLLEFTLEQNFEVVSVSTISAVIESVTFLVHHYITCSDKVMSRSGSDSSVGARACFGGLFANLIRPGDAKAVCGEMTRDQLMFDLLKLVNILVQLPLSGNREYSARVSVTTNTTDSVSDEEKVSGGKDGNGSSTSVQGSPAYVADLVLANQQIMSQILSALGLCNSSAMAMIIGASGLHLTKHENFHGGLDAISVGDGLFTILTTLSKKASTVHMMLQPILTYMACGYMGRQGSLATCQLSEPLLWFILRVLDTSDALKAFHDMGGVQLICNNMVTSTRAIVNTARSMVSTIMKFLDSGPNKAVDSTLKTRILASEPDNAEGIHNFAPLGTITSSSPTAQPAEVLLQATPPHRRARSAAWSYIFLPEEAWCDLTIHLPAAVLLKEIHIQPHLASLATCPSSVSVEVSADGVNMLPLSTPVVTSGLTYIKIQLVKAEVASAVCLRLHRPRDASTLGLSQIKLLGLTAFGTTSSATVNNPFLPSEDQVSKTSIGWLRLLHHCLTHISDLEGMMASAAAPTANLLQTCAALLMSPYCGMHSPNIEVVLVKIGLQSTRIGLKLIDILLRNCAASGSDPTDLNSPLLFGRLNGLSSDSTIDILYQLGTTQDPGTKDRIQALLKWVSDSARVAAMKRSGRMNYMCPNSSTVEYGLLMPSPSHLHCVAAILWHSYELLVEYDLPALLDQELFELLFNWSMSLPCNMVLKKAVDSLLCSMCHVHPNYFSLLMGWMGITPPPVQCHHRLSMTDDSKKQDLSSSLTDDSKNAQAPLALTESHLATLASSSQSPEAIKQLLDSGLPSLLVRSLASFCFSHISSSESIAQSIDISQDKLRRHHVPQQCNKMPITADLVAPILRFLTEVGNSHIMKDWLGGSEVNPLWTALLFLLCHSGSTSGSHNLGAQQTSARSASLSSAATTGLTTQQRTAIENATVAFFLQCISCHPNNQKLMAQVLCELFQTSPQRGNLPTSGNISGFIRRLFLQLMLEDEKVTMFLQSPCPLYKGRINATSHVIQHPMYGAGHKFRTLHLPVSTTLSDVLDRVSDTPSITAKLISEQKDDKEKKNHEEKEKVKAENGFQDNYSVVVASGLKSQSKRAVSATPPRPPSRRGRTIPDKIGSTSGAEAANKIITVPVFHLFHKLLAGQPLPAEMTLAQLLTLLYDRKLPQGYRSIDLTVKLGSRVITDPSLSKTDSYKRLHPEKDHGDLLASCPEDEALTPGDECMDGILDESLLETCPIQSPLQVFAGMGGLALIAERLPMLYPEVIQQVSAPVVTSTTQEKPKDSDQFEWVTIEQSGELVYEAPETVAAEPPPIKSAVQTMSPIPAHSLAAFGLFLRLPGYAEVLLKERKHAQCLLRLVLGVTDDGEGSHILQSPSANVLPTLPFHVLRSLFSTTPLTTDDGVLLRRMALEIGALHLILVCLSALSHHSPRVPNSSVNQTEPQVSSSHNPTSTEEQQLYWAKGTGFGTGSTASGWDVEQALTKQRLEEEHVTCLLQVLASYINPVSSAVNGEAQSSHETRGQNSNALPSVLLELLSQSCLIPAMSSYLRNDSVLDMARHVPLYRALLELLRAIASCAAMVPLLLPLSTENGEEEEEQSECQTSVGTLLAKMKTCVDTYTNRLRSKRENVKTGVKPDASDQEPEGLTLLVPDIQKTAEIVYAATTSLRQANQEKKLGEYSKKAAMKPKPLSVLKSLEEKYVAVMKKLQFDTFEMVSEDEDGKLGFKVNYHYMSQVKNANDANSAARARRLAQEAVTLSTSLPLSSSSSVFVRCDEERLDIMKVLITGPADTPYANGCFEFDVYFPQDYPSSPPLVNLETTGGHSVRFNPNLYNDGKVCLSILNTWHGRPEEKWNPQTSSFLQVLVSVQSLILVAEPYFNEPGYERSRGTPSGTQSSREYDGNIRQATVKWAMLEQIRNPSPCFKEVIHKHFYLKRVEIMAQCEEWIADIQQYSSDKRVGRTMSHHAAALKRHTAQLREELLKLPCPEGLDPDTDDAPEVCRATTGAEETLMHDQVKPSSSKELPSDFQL
Chain of UniProt Q712K3 (whole entry, looked up): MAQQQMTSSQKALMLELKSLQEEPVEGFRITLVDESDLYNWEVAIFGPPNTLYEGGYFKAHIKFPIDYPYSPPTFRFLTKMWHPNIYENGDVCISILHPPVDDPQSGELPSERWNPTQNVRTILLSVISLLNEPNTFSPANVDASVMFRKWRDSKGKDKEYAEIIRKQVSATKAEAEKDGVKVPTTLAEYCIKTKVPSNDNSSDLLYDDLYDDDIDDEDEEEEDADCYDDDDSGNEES

Block 1
Target: ABI1, truncated, D143A, DHFR fusion (Arabidopsis thaliana)
Method: DHFR PCA, deep sequencing
Medium: yeast
Notes: methotrexate growth selection, single substitutions
With: (+)-ABA 0.032 µM
Reference: wild-type fitted maximum
Reading: higher = stronger binding
Starting sequence: PYL1, truncated, DHFR fusion (Arabidopsis thaliana); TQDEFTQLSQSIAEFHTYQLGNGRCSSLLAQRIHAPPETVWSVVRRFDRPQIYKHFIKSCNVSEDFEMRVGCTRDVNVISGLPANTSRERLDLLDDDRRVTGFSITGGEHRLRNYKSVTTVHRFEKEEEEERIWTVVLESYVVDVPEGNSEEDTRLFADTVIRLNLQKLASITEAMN
| Change | relative binding score |
| --- | --- |
| T120L | -3.21% |
| D96R | -1.15% |
| D65S | 8.66% |
| R24W | 0.252% |
| R163N | -9.51% |
| A175V | 0.685% |
| V121E | -8.56% |
| A35V | 0.617% |
| D48I | -0.53% |
| I162A | 6.67% |
| Q19V | 19.1% |
| P36W | 3.22% |
| E127S | 38.8% |
| E67P | 4.15% |
| L8F | 27.1% |

Block 2
Sequence: B1 (MKRN2 RING domain)
Method: yeast two-hybrid
Medium: yeast
Notes: mostly zero background
Reference: not given
Reading: higher = stronger interaction
B1: MKRN2 RING domain (UniProt Q9H000); chain FAFQASQDKVCSICMEVILEKASASERRFGILSNCNHTYCLSCIRQWRCAKQFENPIIKSCPECRVISEFVIPSV
| target | lacZ reporter activity |
| --- | --- |
| UBE2C UBC core domain (UniProt O00762) | 0 |
| UBE2D4 UBC core domain (UniProt Q9Y2X8) | 0 |
| UBE2Q1 UBC core domain (UniProt Q7Z7E8) | 0 |
| UBE2R2 UBC core domain (UniProt Q712K3) | 0 |
| UBE2O UBC core domain (UniProt Q9C0C9) | 0 |
| BIRC6 UBC core domain (UniProt Q9NR09) | 0 |
| UBE2D2 UBC core domain (UniProt P62837) | 0 |

Block 3
Target: CCNA2, cyclin fold, Cln2 fusion (human)
Method: yeast growth competition, sequencing
Medium: yeast
Notes: strong parent motif
Reference: not given
Reading: higher = stronger binding
Starting sequence: RBL1 docking peptide (human); GSAKRRLFGEDPP; partner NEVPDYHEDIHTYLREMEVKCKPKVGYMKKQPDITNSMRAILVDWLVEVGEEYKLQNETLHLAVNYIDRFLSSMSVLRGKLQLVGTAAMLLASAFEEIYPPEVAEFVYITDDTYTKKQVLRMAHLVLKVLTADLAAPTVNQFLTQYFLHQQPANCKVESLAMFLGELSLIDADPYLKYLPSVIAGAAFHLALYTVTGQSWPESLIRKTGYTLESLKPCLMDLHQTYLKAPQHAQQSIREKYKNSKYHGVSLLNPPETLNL
| Change | normalised enrichment score |
| --- | --- |
| GKAKRRLFGEDPP [S2K] | 6.45 |
| GSAKRRLWGEDPP [F8W] | 3.8 |
| YSAKRRLFGEDPP [G1Y] | 6.79 |
| GSAKRRLFAEDPP [G9A] | 7.39 |
| GSAKQRLFGEDPP [R5Q] | 1.73 |
| GSAKRRLFGEDNP [P12N] | 5.43 |
| GSAKRRLFGEQPP [D11Q] | 5.71 |
| GSAKRRTFGEDPP [L7T] | -0.21 |
| GSAVRRLFGEDPP [K4V] | 4.4 |

Block 4
Target: RNA binding protein fox-1 homolog 2, RRM domain, GST-SBP tag (RBFOX2, Homo sapiens, UniProt O43251-10, residues 100-194)
Method: RNA Bind-n-Seq
Form: RNA
Medium: in vitro
Tested at: 365 nM
Notes: natural RNA segment, single round, ends assumed
Reference: no-protein control
Reading: higher = stronger binding
All sequences stand within: GGGAGUUCUACAGUCCGACGAUC … UGGAAUUCUCGGGUGCCAA
Target sequence (chain): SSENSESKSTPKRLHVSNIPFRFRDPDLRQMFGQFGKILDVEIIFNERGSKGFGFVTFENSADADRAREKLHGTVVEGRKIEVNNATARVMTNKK
| Strand | RBNS enrichment (R) |
| --- | --- |
| CUUUUUGUUAGCUGUGUACAGAAUGUGUAUCCUAUCUCCUCCCCUCCUUGGCUAAUCAUUGGCAGGGGUCUUCCUGGGGAAAAGCUUAAAGAGCAGCUAGGGAAGGAGAG | 1.3 |
| AAUGUGAUUUGUUAAGAUUCUUAAAUUUGGGCCUCUUAGAAUAAUUUUGAAUGAGAUCUACCGACUCACUUGUGAGAAUAUUUUUCACAGAUUAUCUUUGGGCCUUUUCA | 0.425 |
| CUCUGUCCCCACUGCAGGUGCUGCUUCUCCUCAGGUGUGGCCUACCUAGGCUCCUGGACCCACACCCUCCUCAGGCUGACUUUACUGCCUUGGGAGAAGUCUACAUUUCC | 0.319 |
| GCUCAUCUCCGCUUUUUAGGGUCAGAGGAACACAAGCUCAUGUUCUGAGUGAAGGGCGUACACUGGCACCUGGUGUUGCCUAGAUCCCCCAUCUCCUCCUUCCAGCCAGG | 0.291 |
| AGUUCAGCCUCUCUGUAAUGAAUCAAGAAAUGUAAAAGAGCUUUGAGACCCCAAGGGAAAGGAGAGAGUUGCUUCUCAUUUCUGAUUUUAUUGUGCUGUUACUCUGUCGA | 0.913 |
| UCCAAAUUGUUCUGUAUAAAGAUGCUCUUAAAAGACACAAGAGUUAUCCUAGAACCUUAAUUCUUUUUUAUUUGAAAUUUUAAGUCAAGUCCUUUAUAAAGACCAUAGCA | 1.31 |
| GUUAGCCUUAGUGAUUGCAGUGAACACUGUUUACACACCGUGAAUCCAUUCCCACCAGUCCAUUUCAGUUGCCACCAGCCUGAACCACUCGGUACCUGGUGUUAACUGGA | 0.275 |
| UUGCACUAAAGAAAGCUUGUUAGAAAAAGCUUGCUGCUAUGGAAGAAAGAACAUAUUAAAACUUCUUUCCCUUGCGAUUUUUUUGGGGGAGGGGGGUUAGCAUUUCCACU | 0.359 |

For quick reference, copied from above (block 3):
| Change | normalised enrichment score |
| --- | --- |
| GSAKRRLFGEQPP [D11Q] | 5.71 |
| GSAKRRLFGEDNP [P12N] | 5.43 |
| YSAKRRLFGEDPP [G1Y] | 6.79 |
| GKAKRRLFGEDPP [S2K] | 6.45 |
| GSAKRRLWGEDPP [F8W] | 3.8 |
| GSAKRRLFAEDPP [G9A] | 7.39 |
